Measurements of several laboratories.
Parts stem from different laboratories: compare values within a part only.

Sample 1
Target: Histone acetyltransferase KAT6A, both winged helices, GST fusion (KAT6A, Homo sapiens, UniProt Q92794, residues 1-181)
Technique: protein binding microarray
Molecule type: double-stranded DNA, one strand shown
Matrix: in vitro
Concentration: not given
Setting: 8-mer, flanks averaged, mean of 2 arrays, mostly near background
Relative to: not given
Reading: higher = stronger binding
Target sequence (chain): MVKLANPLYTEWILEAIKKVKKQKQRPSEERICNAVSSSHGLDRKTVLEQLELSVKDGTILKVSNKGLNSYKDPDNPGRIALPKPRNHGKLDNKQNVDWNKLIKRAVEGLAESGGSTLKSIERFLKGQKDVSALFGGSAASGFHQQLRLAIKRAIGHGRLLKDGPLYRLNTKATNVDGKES
Oligonucleotide | E-score
CTCTGCTC | -0.263
CTATGTGA | -0.127
AAACGGAC | 0.0669
AACGCCGC | 0.26

Sample 2
Target: Sal-like protein 4, full length isoform A (SALL4, Homo sapiens, UniProt Q9UJQ4, residues 1-1053)
UniProt Q9UJQ4, sequence (whole entry, looked up): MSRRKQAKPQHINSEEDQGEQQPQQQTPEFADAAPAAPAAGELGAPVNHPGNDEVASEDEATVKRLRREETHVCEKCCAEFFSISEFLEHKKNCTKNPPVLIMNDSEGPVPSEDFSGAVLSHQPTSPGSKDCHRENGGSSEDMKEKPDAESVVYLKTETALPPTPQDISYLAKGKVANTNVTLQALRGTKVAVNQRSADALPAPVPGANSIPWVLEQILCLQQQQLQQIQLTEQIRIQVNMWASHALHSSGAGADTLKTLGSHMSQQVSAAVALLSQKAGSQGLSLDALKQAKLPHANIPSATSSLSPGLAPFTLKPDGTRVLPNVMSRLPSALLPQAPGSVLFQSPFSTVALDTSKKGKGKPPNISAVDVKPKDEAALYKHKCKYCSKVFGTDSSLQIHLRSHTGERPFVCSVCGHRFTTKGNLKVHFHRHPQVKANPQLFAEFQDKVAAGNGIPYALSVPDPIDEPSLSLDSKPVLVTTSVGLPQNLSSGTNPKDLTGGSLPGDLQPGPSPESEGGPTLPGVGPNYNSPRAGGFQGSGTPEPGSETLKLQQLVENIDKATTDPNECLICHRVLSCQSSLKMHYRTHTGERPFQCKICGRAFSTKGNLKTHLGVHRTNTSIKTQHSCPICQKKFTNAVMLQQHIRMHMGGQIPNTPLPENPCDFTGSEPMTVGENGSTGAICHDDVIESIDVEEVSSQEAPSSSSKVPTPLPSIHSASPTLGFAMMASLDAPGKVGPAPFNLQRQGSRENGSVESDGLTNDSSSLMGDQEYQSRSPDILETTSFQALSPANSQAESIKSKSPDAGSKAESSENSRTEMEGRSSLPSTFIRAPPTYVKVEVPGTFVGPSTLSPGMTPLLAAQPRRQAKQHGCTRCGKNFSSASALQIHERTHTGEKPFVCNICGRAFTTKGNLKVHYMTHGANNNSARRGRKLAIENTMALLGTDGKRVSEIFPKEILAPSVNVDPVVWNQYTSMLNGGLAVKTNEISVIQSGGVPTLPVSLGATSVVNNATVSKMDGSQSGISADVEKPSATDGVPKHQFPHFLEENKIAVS
Technique: universal PBM
Molecule type: double-stranded DNA, one strand shown
Matrix: in vitro
Concentration: 600 nM
Setting: 8-mer, flanks averaged, mean of replicates
Reading: higher = stronger binding
Oligonucleotide | E-score
GGCAAAAA | 0.165
AATGCCAA | 0.0642
AGTCAGGA | -0.118
CCAACGCG | -0.36

Sample 3
Target: Cyclic AMP-dependent transcription factor ATF-1 (ATF1, Homo sapiens, UniProt P18846, residues 1-271, full length assumed)
Technique: protein-binding microarray
Molecule type: double-stranded DNA, one strand shown
Matrix: in vitro
Concentration: not given
Setting: k-mer, scored over probes, only values ≥0.25
Reading: higher = stronger binding
Construct (chain): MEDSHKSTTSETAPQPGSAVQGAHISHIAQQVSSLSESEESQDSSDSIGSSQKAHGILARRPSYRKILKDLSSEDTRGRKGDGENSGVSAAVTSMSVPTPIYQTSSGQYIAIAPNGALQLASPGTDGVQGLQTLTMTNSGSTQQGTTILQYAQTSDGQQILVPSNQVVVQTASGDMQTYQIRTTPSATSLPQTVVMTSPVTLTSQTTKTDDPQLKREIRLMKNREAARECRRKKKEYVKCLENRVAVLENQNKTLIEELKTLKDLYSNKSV
Oligonucleotide | E-score
CTATTAC | 0.308
GCGTCAC | 0.488
GTGGGGA | 0.264

Single results of other studies
Substance | target | assay | test system | setting | how to read | endpoint | result
PhoQ, residues 284 288 289 292 302 303 SSLVEF | PhoP, residues 12 14 15 18 19 TTLRV (Escherichia coli, UniProt P23836) | Sort-seq, item: YFP reporter | E. coli | PhoQ-PhoP variant library, together with: 10 µM Mg2+ | relative to: high Mg2+ state, higher = stronger signaling | fold induction | 0.435

For quick reference, copied from above (sample 1):
Oligonucleotide | E-score
CTATGTGA | -0.127
